Assay results of several laboratories.
Protocols differ between the studies behind these lines. ± marks the error that the study gave. In brackets after ≈: the same amount, converted by molar mass.

Protein sequences, listed by entry. Tags and fused reporters are not part of them.
UniProt Q9UHD2, whole entry: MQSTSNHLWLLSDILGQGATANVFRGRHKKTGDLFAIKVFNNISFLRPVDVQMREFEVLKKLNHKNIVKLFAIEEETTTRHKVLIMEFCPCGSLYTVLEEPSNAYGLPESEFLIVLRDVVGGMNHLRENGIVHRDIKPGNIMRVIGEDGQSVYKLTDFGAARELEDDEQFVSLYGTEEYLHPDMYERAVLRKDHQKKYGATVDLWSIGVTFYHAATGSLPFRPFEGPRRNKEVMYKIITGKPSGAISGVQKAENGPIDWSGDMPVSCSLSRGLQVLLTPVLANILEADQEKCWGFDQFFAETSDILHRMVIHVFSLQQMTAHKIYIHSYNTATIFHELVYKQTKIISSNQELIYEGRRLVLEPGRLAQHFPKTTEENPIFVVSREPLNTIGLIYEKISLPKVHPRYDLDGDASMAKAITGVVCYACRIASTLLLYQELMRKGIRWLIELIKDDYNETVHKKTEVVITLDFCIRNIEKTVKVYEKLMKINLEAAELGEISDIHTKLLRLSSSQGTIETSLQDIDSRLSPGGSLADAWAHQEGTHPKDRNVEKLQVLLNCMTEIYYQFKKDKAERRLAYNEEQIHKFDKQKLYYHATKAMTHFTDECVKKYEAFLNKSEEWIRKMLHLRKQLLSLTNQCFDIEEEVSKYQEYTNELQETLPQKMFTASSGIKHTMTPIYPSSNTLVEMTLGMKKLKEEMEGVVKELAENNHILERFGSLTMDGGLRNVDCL
UniProt P48730, whole entry: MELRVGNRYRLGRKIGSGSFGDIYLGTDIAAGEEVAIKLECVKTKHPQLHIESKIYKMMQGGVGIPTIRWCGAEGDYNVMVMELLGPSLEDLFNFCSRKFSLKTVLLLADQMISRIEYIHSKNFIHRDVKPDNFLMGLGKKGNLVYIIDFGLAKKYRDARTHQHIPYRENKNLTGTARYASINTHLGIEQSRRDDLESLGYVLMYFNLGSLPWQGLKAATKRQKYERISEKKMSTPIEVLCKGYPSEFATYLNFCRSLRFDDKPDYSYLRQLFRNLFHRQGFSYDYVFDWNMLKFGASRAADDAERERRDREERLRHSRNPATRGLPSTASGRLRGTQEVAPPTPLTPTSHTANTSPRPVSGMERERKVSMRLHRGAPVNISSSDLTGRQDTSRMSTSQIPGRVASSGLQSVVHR

For CC[C@@H](C(N)=O)N1CCCC1=O, the Cmax was 3630 ng/mL (LC-MS/MS; rat, paraoxon-induced status epilepticus, whole blood; oral, 50 mg/kg levetiracetam, together with: atropine 5 mg/kg).
C[C@H](Cc1ccc(O)c(O)c1)[C@@H](C)Cc1ccc(O)c(O)c1 has a solubility of > 100 mg/mL (ethanol; 24 h, room temperature).
Under “degradation to non-isomer products”, CC(C)C[C@H](NC(=O)[C@@H]1C[C@@H](O)CN1C(=O)[C@H](Cc1ccccc1)NC(=O)[C@H](CO)NC(=O)[C@H](C)NC(=O)[C@H](Cc1ccccc1)NC(=O)[C@@H](NC(=O)[C@H](CCC(=O)O)NC(=O)[C@H](Cc1c[nH]cn1)NC(=O)[C@@H](NC(=O)[C@@H](NC(=O)[C@H](CCC(N)=O)NC(=O)[C@H](C)NC(=O)[C@@H](N)CC(=O)O)[C@@H](C)O)C(C)C)C(C)C)C(=O)N[C@@H](CC(=O)O)C(=O)N[C@@H](CO)C(=O)N[C@@H](CC(=O)O)C(=O)NCC(=O)N[C@H]1CSSC[C@@H]2NC(=O)[C@H](C)NC(=O)[C@@H]3CCCN3C(=O)[C@H](CC(N)=O)NC(=O)[C@H](Cc3c[nH]c4ccccc34)NC(=O)[C@H](CSSC[C@@H](C(N)=O)NC(=O)[C@H](Cc3ccc(O)cc3)NC(=O)[C@H](Cc3c[nH]cn3)NC(=O)[C@H](CCCCN)NC(=O)CNC2=O)NC1=O is recorded as 21.9 ± 2.33% (RP-HPLC; mouse serum 25%; 50 µM, 6 h, 37 °C).
For CCN1CCN(Cc2ccc(NC(=O)c3ccc(C)c(/C=C/c4cnc5[nH]ccc5c4OC)c3)cc2C(F)(F)F)CC1, “log2 fold change” read -0.053 (Serine/threonine-protein kinase TBK1 (TBK1, Homo sapiens, UniProt Q9UHD2); kinase-CDC37 interaction, inhibitor; human cells; 5 µM; relative to: vehicle).
O=C(Nc1ccccc1)c1cc([N+](=O)[O-])ccc1Cl gave a C0 of 232 ng/mL (LC-MS/MS; Sprague-Dawley rat, male, plasma; intravenous, 2.5 mg/kg).
CN(CC1CCN(Cc2ccccc2)CC1)C(=O)c1cn(Cc2ccccc2Cl)nn1 — result for “brain to plasma AUC ratio”: 2.8 (C57BL/6 mice male; intraperitoneal, 10 mg/kg; relative to: brain over plasma).
CCCCCCCCCCCCCCCC(=O)NCCCC[C@H](NC(=O)CNC(=O)[C@H](CO)NC(=O)CNC(=O)[C@H](CCC(N)=O)NC(=O)[C@H](Cc1c[nH]cn1)NC(=O)[C@H](Cc1c[nH]c2ccccc12)NC(=O)[C@H](CC(N)=O)NC(=O)CNC(=O)[C@@H](NC(=O)[C@H](CO)NC(=O)[C@H](CC(=O)O)NC(=O)[C@H](CC(C)C)NC(=O)[C@@H](NC(=O)[C@H](CCCCN)NC(=O)[C@H](CC(N)=O)NC(=O)[C@H](CO)NC(=O)[C@H](CCCNC(=N)N)NC(=O)[C@H](CCCNC(=N)N)NC(=O)[C@@H](NC(=O)[C@H](Cc1c[nH]c2ccccc12)NC(=O)[C@H](CCC(=O)O)NC(=O)[C@H](CCCCN)NC(=O)[C@H](CO)NC(=O)[C@H](CCC(=O)O)NC(=O)[C@H](CCC(=O)O)NC(=O)[C@H](CC(C)C)NC(=O)[C@H](CC(=O)O)NC(=O)[C@H](CCCCN)NC(=O)[C@H](CCCCN)NC(=O)[C@@H](NC(=O)[C@H](CCCCN)NC(=O)[C@H](CC(N)=O)NC(=O)[C@H](CC(C)C)NC(=O)[C@@H](NC(=O)[C@H](CCC(=O)O)NC(=O)[C@H](CO)NC(=O)[C@@H](NC(=O)[C@H](CC(=O)O)NC(=O)[C@@H](NC(=O)[C@@H]1CCCN1C(=O)[C@H](CC(=O)O)NC(=O)[C@H](CC(C)C)NC(=O)[C@H](C)NC(=O)[C@@H](N)C(C)C)[C@@H](C)CC)[C@@H](C)CC)C(C)C)[C@@H](C)CC)[C@@H](C)CC)[C@@H](C)CC)[C@@H](C)CC)C(=O)O gave a solubility of > 50 mg/mL (water).
The inhibition of CC#C/C(=N\OC[C@H]1COCCN1)c1ccc2ncnc(Nc3ccc(OCc4cccc(F)c4)c(Cl)c3)c2c1 is reported as -10.7% (Casein kinase I isoform delta (CSNK1D, Homo sapiens, UniProt P48730); kinase activity; 10 µM).
The solubility of CCCCCCCCCCCCCCCC(=O)NCCCC[C@H](NC(=O)CCOCCOCCOCCOCCNC(=O)CNC(=O)[C@H](CO)NC(=O)CNC(=O)[C@@H](NC(=O)[C@H](CO)NC(=O)[C@H](CC(=O)O)NC(=O)[C@H](CC(C)C)NC(=O)[C@@H](NC(=O)[C@H](CCCCN)NC(=O)[C@H](CC(N)=O)NC(=O)[C@H](CO)NC(=O)[C@H](CCCNC(=N)N)NC(=O)[C@H](CCCNC(=N)N)NC(=O)[C@@H](NC(=O)[C@H](Cc1c[nH]c2ccccc12)NC(=O)[C@H](CCC(=O)O)NC(=O)[C@H](CCCCN)NC(=O)[C@H](CO)NC(=O)[C@H](CCC(=O)O)NC(=O)[C@H](CCC(=O)O)NC(=O)[C@H](CC(C)C)NC(=O)[C@H](CC(=O)O)NC(=O)[C@H](CO)NC(=O)[C@H](CCCCN)NC(=O)[C@@H](NC(=O)[C@H](CCCCN)NC(=O)[C@H](CC(N)=O)NC(=O)[C@H](CC(C)C)NC(=O)[C@@H](NC(=O)[C@@H](NC(=O)[C@H](CO)NC(=O)[C@@H](NC(=O)[C@H](CC(=O)O)NC(=O)[C@@H](NC(=O)[C@@H]1CCCN1C(=O)[C@H](CC(=O)O)NC(=O)[C@H](CC(C)C)NC(=O)[C@H](C)NC(=O)[C@@H](NC(C)=O)C(C)C)[C@@H](C)CC)[C@@H](C)CC)[C@@H](C)CC)C(C)C)[C@@H](C)CC)[C@@H](C)CC)[C@@H](C)CC)[C@@H](C)CC)C(N)=O is reported as 34.8 ± 0.56 mg/mL (≈ 6.94 mM) (water).
CCCSc1nc(N[C@@H]2C[C@H]2c2ccc(F)c(F)c2)c2nnn([C@@H]3C[C@H](OCCO)[C@@H](O)[C@H]3O)c2n1 has a Tmax of 12 h (STEMI patients, plasma; oral, 180 mg loading dose, median, together with: morphine).
